Experimental data collected from several papers.
A part holds a random share of what one study measured.
Chain of UniProt Q8TD19 (whole entry, looked up): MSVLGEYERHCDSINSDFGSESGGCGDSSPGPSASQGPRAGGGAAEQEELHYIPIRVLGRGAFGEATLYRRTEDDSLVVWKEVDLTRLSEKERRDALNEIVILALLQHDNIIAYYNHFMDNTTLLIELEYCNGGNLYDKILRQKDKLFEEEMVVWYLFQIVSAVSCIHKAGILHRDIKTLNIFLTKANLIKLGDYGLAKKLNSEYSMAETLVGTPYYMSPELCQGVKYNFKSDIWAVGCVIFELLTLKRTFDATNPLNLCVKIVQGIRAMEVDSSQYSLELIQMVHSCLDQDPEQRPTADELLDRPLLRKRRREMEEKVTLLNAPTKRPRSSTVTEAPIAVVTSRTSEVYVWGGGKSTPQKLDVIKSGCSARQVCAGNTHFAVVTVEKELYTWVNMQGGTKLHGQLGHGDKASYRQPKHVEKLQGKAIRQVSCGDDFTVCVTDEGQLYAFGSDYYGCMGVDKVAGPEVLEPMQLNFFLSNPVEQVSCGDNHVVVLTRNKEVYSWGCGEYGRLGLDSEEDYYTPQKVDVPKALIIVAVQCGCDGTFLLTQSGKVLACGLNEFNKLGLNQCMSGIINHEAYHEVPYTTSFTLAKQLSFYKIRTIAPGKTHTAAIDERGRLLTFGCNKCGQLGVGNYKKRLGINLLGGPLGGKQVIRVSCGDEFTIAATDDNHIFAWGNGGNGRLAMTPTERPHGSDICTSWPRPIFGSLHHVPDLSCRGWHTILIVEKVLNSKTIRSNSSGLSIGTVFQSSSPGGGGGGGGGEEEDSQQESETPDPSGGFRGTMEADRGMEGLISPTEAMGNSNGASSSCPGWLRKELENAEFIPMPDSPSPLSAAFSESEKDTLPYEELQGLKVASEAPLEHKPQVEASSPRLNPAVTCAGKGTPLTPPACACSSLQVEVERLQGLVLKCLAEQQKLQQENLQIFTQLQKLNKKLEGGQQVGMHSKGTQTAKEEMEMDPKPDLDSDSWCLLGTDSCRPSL

Study 1
Target: Ras GTPase-activating protein-binding protein 1, RRM domain (G3BP1, Homo sapiens, UniProt Q13283)
Chain of UniProt Q13283 (whole entry, looked up): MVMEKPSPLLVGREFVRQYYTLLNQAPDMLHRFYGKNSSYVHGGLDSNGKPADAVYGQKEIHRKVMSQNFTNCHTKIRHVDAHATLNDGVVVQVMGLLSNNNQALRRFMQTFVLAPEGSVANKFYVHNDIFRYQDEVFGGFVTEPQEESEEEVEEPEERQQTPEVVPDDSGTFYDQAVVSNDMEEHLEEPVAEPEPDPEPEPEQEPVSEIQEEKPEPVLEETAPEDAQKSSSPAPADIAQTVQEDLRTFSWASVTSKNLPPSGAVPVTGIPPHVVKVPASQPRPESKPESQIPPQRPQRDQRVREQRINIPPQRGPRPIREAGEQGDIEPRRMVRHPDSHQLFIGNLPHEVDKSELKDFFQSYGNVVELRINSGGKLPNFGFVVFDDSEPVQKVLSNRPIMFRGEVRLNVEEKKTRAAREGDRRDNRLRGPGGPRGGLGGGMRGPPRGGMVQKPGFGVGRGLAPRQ
Method: RNA Bind-n-Seq
Form: RNA
Medium: in vitro
Tested at: 1 µM
Setting: whole 134-nt RNA, ends assumed
With: 150 mM KCl
Baseline: input library
Reading: higher = stronger binding
Shared flanks, not repeated: GGGAGUUCUACAGUCCGACGAUC … UGGAAUUCUCGGGUGUCAAGG
With `CUGUGCUACACAUCGUAUGUACCGAAUCGGGUUUUUUUGGGAAAAAAAGGGAAAAAAAGGGAAAGUAUUAUGUUACGCCGUUCGGAUCUG` the log2 enrichment was -0.361.
`UCCUGUGCUACACAUCGUAUGUACCGAAUCGGAAAAAAAGGAAAAAAAGGGAAAAAAAGGAAAGUAUUAUGUUACGCCGUUCGGAUCUGC` gave a log2 enrichment of 0.188.
`AGUCCUGUGCUACACAUCGUAUGUACCGAAUCGGGCCCCCGGCCCCCGGCCCCCGGGGAAAGUAUUAUGUUACGCCGUUCGGAUCUGCAC` gave a log2 enrichment of -0.696.
For `AAGUCCUGUGCUACACAUCGUAUGUACCGAAUCGGAAAGGAAAAAAAGGAAAAAGGAAAGUAUUAUGUUACGCCGUUCGGAUCUGCACUU`, the log2 enrichment was -0.019.
The log2 enrichment of `CUGUGCUACACAUCGUAUGUACCGAAUCGGGGAAAAAAAGGGAAAAAAAGGGAAAAAAAGGGAAAGUAUUAUGUUACGCCGUUCGGAUCU` is reported as 0.174.
`GCAGGAAGUAAAAACAAAUGGAAAUGCUUCGGAUAGUGGCAGGGGUGGGGGAUGCUAAGGAAAGGGUGGGAUGGGAGUGGGUAAAGAGUU` gave a log2 enrichment of 0.773.
The log2 enrichment of `UCGUUCCCCCCGCCACGAGAAGAAGAAGAAGGUCCGUAAAUACUGGGACGUGCCACCCCCAGGCUUUGAGCACAUCACCCCAAUGCAGUA` is reported as -0.234.
The log2 enrichment of `CUGUGCUACACAUCGUAUGUACCGAAUCGGGGUUUGGGGAAAAAAAGGGGAAAAAAAGGGGAAAGUAUUAUGUUACGCCGUUCGGAUCUG` is reported as 0.588.

Study 2
Target: Interferon regulatory factor 7, full length, phosphomimetic (IRF7, Homo sapiens, UniProt Q92985, residues 1-503, S101K/S471D/S472D/S475D/S476D/S477D/S483D/S484D/S487D)
Chain of UniProt Q92985 (whole entry, unmodified, looked up): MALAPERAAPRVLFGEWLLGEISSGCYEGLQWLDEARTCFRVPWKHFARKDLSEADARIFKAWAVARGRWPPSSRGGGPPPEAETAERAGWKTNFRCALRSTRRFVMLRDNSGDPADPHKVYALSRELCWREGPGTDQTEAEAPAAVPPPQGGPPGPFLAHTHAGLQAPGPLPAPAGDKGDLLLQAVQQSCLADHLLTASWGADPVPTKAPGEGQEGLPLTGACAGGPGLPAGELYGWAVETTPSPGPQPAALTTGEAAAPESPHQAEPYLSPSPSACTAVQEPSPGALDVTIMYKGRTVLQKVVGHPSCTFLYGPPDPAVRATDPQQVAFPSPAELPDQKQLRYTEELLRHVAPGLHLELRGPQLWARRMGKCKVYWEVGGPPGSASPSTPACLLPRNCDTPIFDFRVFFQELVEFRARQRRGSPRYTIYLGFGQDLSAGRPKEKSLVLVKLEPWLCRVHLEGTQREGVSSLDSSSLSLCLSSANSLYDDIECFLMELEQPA
Method: protein-binding microarray
Form: double-stranded DNA, one strand shown
Medium: in vitro
Tested at: 250 nM
Setting: 60-bp whole probe
With: salmon DNA 0.4 mg/ml
Baseline: random background probes
Reading: higher = stronger binding
Shared flanks, not repeated: GCCTAGCAC … GTCTTGATTCGCTTGACGCTGCTG
`TTGAAAAAATATTTATTTCAGTGCTAG` has a log fluorescence of -0.126 z-score.
`TCAGCTTCCTAATTCTCACTGTGCTAG` gave a log fluorescence of 0.721 z-score.
`GACGGTTTCCTTTCCCTGAAGTGCTAG` has a log fluorescence of 5.48 z-score.
The log fluorescence of `TTGGATATCAGACTGGATTAGTGCTAG` is reported as -0.324 z-score.
`TTAGATCTCAGTATGGATTAGTGCTAG` has a log fluorescence of -0.0698 z-score.
`GACGGTCCCCTTCTCCTGACGTGCTAG` has a log fluorescence of 0.276 z-score.
`GACGGTATCGCCTATCGGGACGTGCTA` has a log fluorescence of -0.388 z-score.
`TAGTTTTACTTTCTATCTCTGTGCTAG` gave a log fluorescence of 3.38 z-score.

Study 3
Target: PABPC1L2, full length, GST fusion (mouse, UniProt A0ABA7IW68)
Method: RNAcompete
Form: RNA
Medium: in vitro
Tested at: 20 nM
Setting: 7-mer, probes averaged, single round
Baseline: mean of 7-mers
Reading: higher = stronger binding
Residues (chain): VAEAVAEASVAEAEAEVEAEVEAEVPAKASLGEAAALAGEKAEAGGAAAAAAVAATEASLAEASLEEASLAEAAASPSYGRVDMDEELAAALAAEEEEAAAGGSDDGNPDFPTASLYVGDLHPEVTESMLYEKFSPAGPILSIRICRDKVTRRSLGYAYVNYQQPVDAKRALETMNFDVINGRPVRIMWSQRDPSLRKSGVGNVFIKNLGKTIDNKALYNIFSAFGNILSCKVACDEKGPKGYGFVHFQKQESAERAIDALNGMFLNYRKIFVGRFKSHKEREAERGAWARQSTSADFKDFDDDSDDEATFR
For `UGAGGCA`, the 7-mer Z-score was 0.0569.
With `CACGUCU` the 7-mer Z-score was -0.345.
The 7-mer Z-score of `CUGGUGG` is reported as -0.161.
The 7-mer Z-score of `UAUACAA` is reported as 0.289.
`GGGAAAG` gave a 7-mer Z-score of 0.35.
`UGAUAGG` gave a 7-mer Z-score of -0.05.
The 7-mer Z-score of `GGCCGUG` is reported as -0.15.
For `GCCCUAA`, the 7-mer Z-score was -0.0645.

Other studies, line by line
`Nc1nc(Nc2ccc(S(N)(=O)=O)cc2)nn1C(=O)c1c(F)cccc1F` has a remaining activity of 82.2% (Serine/threonine-protein kinase Nek9 (NEK9, Homo sapiens, UniProt Q8TD19); enzyme activity, inhibitor; 0.5 µM; baseline: control).

Repeated from above (study 1):
`AGUCCUGUGCUACACAUCGUAUGUACCGAAUCGGGCCCCCGGCCCCCGGCCCCCGGGGAAAGUAUUAUGUUACGCCGUUCGGAUCUGCAC` gave a log2 enrichment of -0.696.
`UCCUGUGCUACACAUCGUAUGUACCGAAUCGGAAAAAAAGGAAAAAAAGGGAAAAAAAGGAAAGUAUUAUGUUACGCCGUUCGGAUCUGC` gave a log2 enrichment of 0.188.
`GCAGGAAGUAAAAACAAAUGGAAAUGCUUCGGAUAGUGGCAGGGGUGGGGGAUGCUAAGGAAAGGGUGGGAUGGGAGUGGGUAAAGAGUU` gave a log2 enrichment of 0.773.
